Measured values of several laboratories.
A part holds a random share of what one study measured. Positions count from the first letter of the parent shown.

Sample 1
Target: POU domain, class 5, transcription factor 1, POU domain (Pou5f1, Mus musculus, UniProt P20263, residues 131-289)
Chain of UniProt P20263 (131-289, looked up): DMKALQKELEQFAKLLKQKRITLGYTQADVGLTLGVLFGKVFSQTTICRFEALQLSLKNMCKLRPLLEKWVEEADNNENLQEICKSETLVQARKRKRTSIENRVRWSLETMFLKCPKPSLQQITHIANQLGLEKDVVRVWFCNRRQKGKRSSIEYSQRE
Technique: Spec-seq
Molecule type: double-stranded DNA, one strand shown
Matrix: in vitro
Tested at: not given
Setting: whole probe, mean of replicates
Baseline: not given
Direction: lower = stronger binding
All sequences stand within: GAGTCGTCTCGTCAGCAC … CCGTAGAGCACTCAGGTC
Under “relative binding energy”, `AACGTAAT` is recorded as 0.571 ln ratio.
`ATGCTGTG` — result for “relative binding energy”: 0.883 ln ratio.
`ATGCTTGC`: “relative binding energy” 0.61 ln ratio.
For `ATGCTTAC`, “relative binding energy” read 0.165 ln ratio.
Under “relative binding energy”, `AGTGTAAT` is recorded as 0.637 ln ratio.
`AGCTTAAT`: “relative binding energy” 0.553 ln ratio.
For `ATCAACAT`, “relative binding energy” read -1.28 ln ratio.
`TTTCTAAT`: “relative binding energy” 0.34 ln ratio.

Sample 2
Target: ABI1, truncated, D143A, DHFR fusion (Arabidopsis thaliana)
Technique: DHFR PCA, deep sequencing
Matrix: yeast
Setting: methotrexate growth selection, single substitutions
Added: (+)-ABA 17 µM
Baseline: wild-type fitted maximum
Direction: higher = stronger binding
Parent: PYL1, truncated, DHFR fusion (Arabidopsis thaliana); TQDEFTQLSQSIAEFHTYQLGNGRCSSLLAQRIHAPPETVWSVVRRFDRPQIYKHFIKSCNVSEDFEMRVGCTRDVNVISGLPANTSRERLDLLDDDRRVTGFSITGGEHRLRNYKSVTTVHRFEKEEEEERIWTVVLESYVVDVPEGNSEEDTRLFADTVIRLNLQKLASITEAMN; partner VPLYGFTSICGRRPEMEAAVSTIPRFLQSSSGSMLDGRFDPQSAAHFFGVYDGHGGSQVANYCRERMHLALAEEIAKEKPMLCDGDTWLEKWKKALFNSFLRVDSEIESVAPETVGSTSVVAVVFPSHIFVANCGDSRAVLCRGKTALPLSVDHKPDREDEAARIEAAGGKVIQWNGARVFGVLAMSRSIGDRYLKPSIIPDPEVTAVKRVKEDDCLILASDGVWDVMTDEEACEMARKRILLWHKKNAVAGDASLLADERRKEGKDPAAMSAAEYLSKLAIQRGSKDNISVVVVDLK
Under “relative binding score”, `Y141E` is recorded as -2.97%.
For `G102E`, “relative binding score” read -1.94%.
`G21R`: “relative binding score” 82.3%.
`V43Q`: “relative binding score” 31.2%.
Under “relative binding score”, `F56V` is recorded as 5.74%.
Under “relative binding score”, `V40D` is recorded as 0.0549%.
`I52H`: “relative binding score” 68.9%.
For `T39R`, “relative binding score” read 81.1%.
Under “relative binding score”, `A158L` is recorded as 96%.

Sample 3
Target: Interferon regulatory factor 7, full length, phosphomimetic (IRF7, Homo sapiens, UniProt Q92985, residues 1-503, S471D/S472D/S475D/S476D/S477D/S483D/S484D/S487D)
Technique: protein-binding microarray
Molecule type: double-stranded DNA, one strand shown
Matrix: in vitro
Tested at: 2200 nM top
Setting: 60-bp whole probe
Added: salmon DNA 0.4 mg/ml
Baseline: random background probes
Direction: higher = stronger binding
All sequences stand within: GCCTAGCAC … GTCTTGATTCGCTTGACGCTGCTG
Target sequence (chain): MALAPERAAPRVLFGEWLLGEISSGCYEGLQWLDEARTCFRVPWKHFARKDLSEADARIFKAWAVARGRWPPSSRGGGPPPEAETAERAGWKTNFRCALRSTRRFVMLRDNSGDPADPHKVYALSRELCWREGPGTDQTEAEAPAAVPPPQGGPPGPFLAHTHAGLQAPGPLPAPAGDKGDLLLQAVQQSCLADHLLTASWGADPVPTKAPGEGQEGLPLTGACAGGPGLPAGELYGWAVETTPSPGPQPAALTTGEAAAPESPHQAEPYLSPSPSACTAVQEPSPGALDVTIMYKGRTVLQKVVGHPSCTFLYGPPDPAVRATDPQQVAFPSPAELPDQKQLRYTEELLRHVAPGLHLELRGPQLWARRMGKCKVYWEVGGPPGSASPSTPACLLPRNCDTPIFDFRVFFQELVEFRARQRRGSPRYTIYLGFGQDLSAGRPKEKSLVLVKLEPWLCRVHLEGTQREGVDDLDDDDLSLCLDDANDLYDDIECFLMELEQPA
`GACGGTATCGGACTGGGGAAGTGCTAG`: “fitted relative affinity” -0.343 z-score.
`GGCGATCTCAGTTTCGAGACGTGCTAG` — result for “fitted relative affinity”: 3.1 z-score.
For `CTAGGTATCGGGACTGGGTTAGTGCTA`, “fitted relative affinity” read -0.47 z-score.
`GACGGTCTCCTTTTCCAGACGTGCTAG` — result for “fitted relative affinity”: 1.64 z-score.
Under “fitted relative affinity”, `CTCTTTCTCTGCTACCCTCTGGTGCTA` is recorded as 2.16 z-score.
Under “fitted relative affinity”, `TCATTTTTACCTGTGGTACTGTGCTAG` is recorded as 1.83 z-score.
`GACCGTTTCCTTTTCCTGACGTGCTAG` — result for “fitted relative affinity”: 4.4 z-score.
Under “fitted relative affinity”, `TCAAAGCTCCTATCTTATACTGTGCTA` is recorded as 0.0827 z-score.
Under “fitted relative affinity”, `CAAGTTTCTCCTTTCGGAATGTGCTAG` is recorded as 6.06 z-score.

Single results of other studies
`PhoQ, residues 284 288 289 292 302 303 SCKMEA` has a fold induction of 12.8 (PhoP, residues 12 14 15 18 19 LHHSG (Escherichia coli, UniProt P23836); Sort-seq, item: YFP reporter; E. coli; PhoQ-PhoP variant library, added: 10 µM Mg2+; baseline: high Mg2+ state, higher = stronger signaling).
